{"data": "Published values collected from several papers", "note": "Every numbered part comes from another study and shows a few of its results, in no order. “And” joins repeats or separate records; there may be more than shown.", "chain of UniProt P17106 (whole entry, looked up)": "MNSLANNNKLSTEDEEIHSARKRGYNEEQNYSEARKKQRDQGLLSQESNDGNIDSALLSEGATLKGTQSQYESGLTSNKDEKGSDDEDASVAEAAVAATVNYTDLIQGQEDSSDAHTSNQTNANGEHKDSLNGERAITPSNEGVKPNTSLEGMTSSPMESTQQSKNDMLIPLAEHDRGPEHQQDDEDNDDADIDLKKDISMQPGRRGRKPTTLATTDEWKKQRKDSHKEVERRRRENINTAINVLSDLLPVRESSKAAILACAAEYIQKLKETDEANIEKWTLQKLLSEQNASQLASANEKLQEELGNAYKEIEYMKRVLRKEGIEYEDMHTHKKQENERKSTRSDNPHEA"}
{"data": "Sample 1", "target": "Sodium-dependent serotonin transporter (SLC6A4, Homo sapiens, UniProt P31645)", "observed": "binding", "technique": "radioligand binding", "tested at": "10 µM"}
{"SMILES": "COc1nc2ccc([C@@](O)(c3ccccc3)C3CCN(C(C)=O)CC3)cc2c(Cl)c1Cc1ccc(-n2cccn2)cc1", "inhibition": "5.62%"}
{"SMILES": "O=C([C@H]1C[C@H](O)CN1c1ccc(Cl)cc1)N1CC2COCC(C1)N2Cc1ccc(Cl)cc1", "inhibition": "70.3%"}
{"SMILES": "COc1cc(-c2cn(C3CCc4ccccc4N(CC(F)(F)F)C3=O)nn2)ccc1-n1ccc(C)n1 (stereo not drawn)", "inhibition": "90.6%"}
{"SMILES": "CCOC(=O)c1cc2cc(-c3cc(C(=O)NCc4ccc(C(=O)O)cc4)nn3C)ccc2[nH]1", "inhibition": "-0.14%"}
{"SMILES": "CN1C(=O)[C@@H](N2CCc3c(nn(Cc4ccccc4)c3Br)C2=O)COc2ccccc21", "inhibition": "22.6%"}
{"SMILES": "C[C@@H]1CN(c2cc(-c3nn(C)c4ccc(OC5(C)CC5)cc34)ncn2)C[C@H](C)O1", "inhibition": "-3.49%"}
{"SMILES": "CN([C@@H]1CCc2c(CC(=O)O)c3cc(S(C)(=O)=O)ccc3n2C1)S(=O)(=O)c1ccc(F)cc1", "inhibition": "5.16%"}
{"SMILES": "CC(=O)c1c(NS(C)(=O)=O)c2cc(-c3ccc(Cl)cc3)c(-c3ccc(Cl)cc3Cl)nc2n(C)c1=O", "inhibition": "-18.6%"}
{"SMILES": "CC(C)(O)c1cncc(-c2nc3ccc(F)cc3n2C2CC2)c1", "inhibition": "-15.3%"}
{"SMILES": "O=C(Nc1cnc(Oc2ccc(F)cc2)nc1)N1CCc2ncccc2[C@@H]1c1ccc(F)cc1", "inhibition": "25.5%"}
{"SMILES": "O=C(Nc1cccnn1)N1CC(CC=Cc2cncc(Oc3ccc(C(F)(F)F)cn3)n2)C1", "inhibition": "32.7%"}
{"SMILES": "CNC(=O)c1ccc(Nc2ncc(C(F)(F)F)c(NCc3nccnc3N(C)S(C)(=O)=O)n2)cc1", "inhibition": "2.45%"}
{"SMILES": "COc1cccc(CNC(=O)c2nc3scc(COCc4ccc(C(=O)O)cc4)c3c(=O)[nH]2)c1", "inhibition": "-3.64%"}
{"SMILES": "Cc1c(N2CCCC2)nc2ccc(Br)cc2c1C(=O)NC[C@H](CCC(=O)O)c1ccccc1Cl", "inhibition": "-7.59%"}
{"SMILES": "CC(=O)N1CCC(c2ccc(C(=O)NC(=N)N)cc2C(F)(F)F)CC1", "inhibition": "21.4%"}
{"SMILES": "Cc1nc(Cc2cccc(C(F)(F)F)c2)sc1-c1ccc(C(N)=O)nc1", "inhibition": "-7.18%"}
{"SMILES": "Cc1nccc(COC(=O)N2C[C@@H]3[C@@H](CNC(=O)c4ccc5[nH]nnc5c4)[C@@H]3C2)n1", "inhibition": "-3.25%"}
{"SMILES": "O=C1CCc2cc(Nc3cc(OC4CCOCC4)c([N+](=O)[O-])cc3Cl)ccc2N1", "inhibition": "23.5%"}
{"data": "Sample 2", "Substance": "meglumine antimoniate", "organism": "Leishmania infantum chagasi", "technique": "qPCR", "species": "golden hamster chronic infection", "route": "intraperitoneal", "dose": "50 mg/kg/day", "time": "10 days", "relative to": "microglobulin"}
{"measured": "TNF mRNA", "sample": "liver", "delta Ct": "8.05 cycles and 8.72 cycles and 8.62 cycles and 9.75 cycles and 8.68 cycles and 9.23 cycles"}
{"measured": "TGF-β mRNA", "sample": "spleen", "delta Ct": "2.02 cycles and 2.46 cycles and 1.94 cycles and 1.05 cycles and 2.42 cycles and 1.65 cycles"}
{"measured": "TNF mRNA", "sample": "spleen", "delta Ct": "5.38 cycles and 5.69 cycles and 6.68 cycles and 6.46 cycles and 4.87 cycles and 5.91 cycles"}
{"measured": "IL10 mRNA", "sample": "spleen", "delta Ct": "8.58 cycles and 8.32 cycles and 8.78 cycles and 8.04 cycles and 7.11 cycles and 8.05 cycles"}
{"measured": "IL17 mRNA", "sample": "spleen", "delta Ct": "12.7 cycles and 12.4 cycles and 11.5 cycles and 14 cycles and 13.4 cycles and 12.1 cycles"}
{"data": "Sample 3", "target": "HLA class I histocompatibility antigen, A alpha chain, allele A*80:01 (Homo sapiens, UniProt P04439)", "observed": "peptide-MHC binding", "molecule type": "peptide", "tested at": "concentration not given"}
{"Molecule": "SSRGYSAIW", "binding": "inactive"}
{"Molecule": "LIMEFNSLL", "binding": "inactive"}
{"Molecule": "AKATGRYNL", "binding": "inactive"}
{"Molecule": "RFNAIWFNH", "binding": "inactive"}
{"Molecule": "GKLDPTNTL", "binding": "inactive"}
{"Molecule": "FFGETSHNY", "binding": "inactive"}
{"Molecule": "VKINIFPLY", "binding": "inactive"}
{"Molecule": "LQKIPLQWF", "binding": "inactive"}
{"data": "Further values, each from its own experiment"}
{"Substance": "TGTACGAAGCTATATCACCCATATATAGTAGTTAGGGTCTTGATTCGCTTGACGCTGCTG", "tested on": "Centromere-binding protein 1, full length, N-terminal tag (CBF1, Saccharomyces cerevisiae, UniProt P17106, residues 1-351)", "test": "protein-binding microarray", "test system": "double-stranded DNA, one strand shown, in vitro", "setting": "0.8 µM, whole 60-bp probe, no competitor", "how to read": "higher = stronger binding", "quantity": "fluorescence intensity", "value": "518 a.u."}
{"Substance": "Cn1c(CCCC(=O)O)nc2cc(N(CCCl)CCCl)ccc21", "tested on": "A-375", "setting": "100 µM, 18 h", "quantity": "viability", "value": "86%"}
{"Substance": "O=C(NCC1C[C@H]2C=C[C@H]1C21CC1)c1coc(CN2CCN(Cc3ccccc3)CC2)n1 (stereo partly drawn)", "tested on": "HEK-293T-ACE2-TMPRSS2", "test": "cell count", "setting": "10 µM", "quantity": "viability", "value": "108%"}
{"Substance": "CNC(=O)Oc1ccccc1OC(C)C", "tested on": "A-375", "setting": "100 µM, 18 h", "quantity": "viability", "value": "85.2%"}
{"Substance": "O=C1CCC(N2Cc3c(ccc4c3OCC43CCN(Cc4ccccc4)CC3)C2=O)C(=O)N1 (stereo not drawn)", "test system": "Sprague Dawley rat, male, plasma", "setting": "oral, 3.0 mg/kg", "quantity": "MRT(0-inf)", "value": "4.26 h"}
{"note": "Repeated from above (sample 3):"}
{"Molecule": "RFNAIWFNH", "binding": "inactive"}
{"Molecule": "GKLDPTNTL", "binding": "inactive"}
{"Molecule": "FFGETSHNY", "binding": "inactive"}
{"Molecule": "VKINIFPLY", "binding": "inactive"}
{"Molecule": "LQKIPLQWF", "binding": "inactive"}
